Measured values gathered from unrelated publications.
Compare with care: the assays were run in different laboratories. Values joined by “and” are separate records of one study, mostly repeats; a detail may differ.
LYN: Tyrosine-protein kinase Lyn (LYN, Homo sapiens, UniProt P07948)
LYN isoform A: Tyrosine-protein kinase Lyn, isoform A (LYN, Homo sapiens, UniProt P07948)
LYN isoform B: Tyrosine-protein kinase Lyn, isoform B (LYN, Homo sapiens, UniProt P07948)

| Compound | target | test | test system | setting | how to read | quantity | result |
| --- | --- | --- | --- | --- | --- | --- | --- |
| COc1ccc(NC(=O)Nc2ccc3c(c2)C(=O)N(C(C)CO)CC(C)C(CN(C)Cc2ccc4c(c2)OCO4)O3)cc1 (centres unmarked) | LYN | kinase activity, KinaseProfiler | – | 0.03 µM, species human | relative to: control | remaining activity | 101% |
| CNC(=O)C1CCN(c2cc(C)c(F)cc2NC(=O)c2ccc(-c3cc(O)ccc3C)c(C)c2)CC1 | LYN | binding, competition with immobilised ligand | – | 1 µM | – | remaining binding | 3.6% |
| COc1c(OCCCN2CCOCC2)ccc2c1N=C(NC(=O)c1cnc(N)nc1)N1CCN=C21 | LYN | kinase activity, inhibitor | – | 1 µM | relative to: untreated control | remaining activity | 101% |
| C=CC(=O)Nc1cccc(-c2cnc3[nH]cc(C(=O)NC(C)(C)C)c3n2)c1 | LYN isoform A | kinase activity, inhibitor, kinase panel | – | 0.1 µM | – | inhibition | -6% and -7% |
| N[C@H]1CC[C@H](Nc2nccc(-c3cccnc3Oc3ccc(NC(=O)NC4CC4)c4ccccc34)n2)CC1 | LYN | kinobead competition pulldown | HEK293/HCT116 lysate mixture | 10 µM, 1 h, 4 °C | lower = stronger competition | log2 LFQ intensity | 21.2 and 20.6 and 19.4 and 20.4 |
| COCC12C(=O)NC3C4(C(OC)CC1O)C1CC5(O)C(OC)C(O)C(OC(C)=O)(C1C5OC(=O)c1ccccc1)C3(O)C(OC)C24 (centres unmarked) | LYN | kinase activity, inhibitor, ProQinase kinase profiling | – | 25 µM | relative to: control | remaining activity | 107% and 116% |
| C=CC(=O)N1Cc2nc(-c3cc(-c4cc(Cl)cnc4Cl)c(F)cc3F)n(-c3ccncn3)c2C1 | LYN isoform B | kinome panel | – | 1 µM | – | inhibition | 12.3% |
| C[C@H]1CN(C(=O)c2cn(-c3ccnc(N)n3)c3cc(C#CC4(O)CCCCC4)ccc23)CCN1 | LYN | kinase activity, Z'-LYTE | – | 1 µM, together with: ATP at apparent Km | – | inhibition | 2% |
| CCN1CCN(Cc2ccc(NC(=O)c3ccc(C)c(NC(=O)c4cncc(-c5cccs5)c4)c3)cc2C(F)(F)F)CC1 | LYN | binding, competition with immobilised ligand | – | 1 µM | – | remaining binding | 0.65% |
| CCn1cc(C(=O)O)c(=O)c2c(N)c(F)c(NC3CCCCC3)cc21 | LYN isoform B | kinase activity | – | 0.1 µM, together with: ATP at Km | – | inhibition | -0.8% |
| Cc1cccc(O[C@H]2CCC[C@@H](C(C)CNCc3ccncc3)C2)c1 (relative stereo) | LYN isoform B | kinome profiling | – | 1 µM | – | inhibition | 4% |
| Cc1[nH]nc2c1N=C(c1ccccc1Cl)c1cnc(N3CCOCC3)cc1N2 | LYN isoform A | kinase activity, inhibitor | – | 0.5 µM | – | inhibition | 11.8% |
| C=CC(=O)N1CCc2ccc(-n3c(=O)ccc4cnc5ccc(-c6cnn(C)c6)cc5c43)cc21 | LYN | KINOMEscan | – | 1 µM | relative to: DMSO control | remaining binding | 100% |
| NC(=O)C[C@H]1CCc2sc3ncnc(O[C@H]4CC[C@H](N5CCOCC5)CC4)c3c21 | LYN | enzyme activity, inhibitor | – | 10 µM | – | inhibition | 22% |

Repeated from above:
| Compound | target | test | test system | setting | how to read | quantity | result |
| --- | --- | --- | --- | --- | --- | --- | --- |
| COc1c(OCCCN2CCOCC2)ccc2c1N=C(NC(=O)c1cnc(N)nc1)N1CCN=C21 | LYN | kinase activity, inhibitor | – | 1 µM | relative to: untreated control | remaining activity | 101% |
| C=CC(=O)Nc1cccc(-c2cnc3[nH]cc(C(=O)NC(C)(C)C)c3n2)c1 | LYN isoform A | kinase activity, inhibitor, kinase panel | – | 0.1 µM | – | inhibition | -6% and -7% |
